Measured values gathered from unrelated publications.
Each line is one published result; not all experiments were run side by side. ± gives the spread as reported.
UniProt P11388, sequence (whole entry, looked up): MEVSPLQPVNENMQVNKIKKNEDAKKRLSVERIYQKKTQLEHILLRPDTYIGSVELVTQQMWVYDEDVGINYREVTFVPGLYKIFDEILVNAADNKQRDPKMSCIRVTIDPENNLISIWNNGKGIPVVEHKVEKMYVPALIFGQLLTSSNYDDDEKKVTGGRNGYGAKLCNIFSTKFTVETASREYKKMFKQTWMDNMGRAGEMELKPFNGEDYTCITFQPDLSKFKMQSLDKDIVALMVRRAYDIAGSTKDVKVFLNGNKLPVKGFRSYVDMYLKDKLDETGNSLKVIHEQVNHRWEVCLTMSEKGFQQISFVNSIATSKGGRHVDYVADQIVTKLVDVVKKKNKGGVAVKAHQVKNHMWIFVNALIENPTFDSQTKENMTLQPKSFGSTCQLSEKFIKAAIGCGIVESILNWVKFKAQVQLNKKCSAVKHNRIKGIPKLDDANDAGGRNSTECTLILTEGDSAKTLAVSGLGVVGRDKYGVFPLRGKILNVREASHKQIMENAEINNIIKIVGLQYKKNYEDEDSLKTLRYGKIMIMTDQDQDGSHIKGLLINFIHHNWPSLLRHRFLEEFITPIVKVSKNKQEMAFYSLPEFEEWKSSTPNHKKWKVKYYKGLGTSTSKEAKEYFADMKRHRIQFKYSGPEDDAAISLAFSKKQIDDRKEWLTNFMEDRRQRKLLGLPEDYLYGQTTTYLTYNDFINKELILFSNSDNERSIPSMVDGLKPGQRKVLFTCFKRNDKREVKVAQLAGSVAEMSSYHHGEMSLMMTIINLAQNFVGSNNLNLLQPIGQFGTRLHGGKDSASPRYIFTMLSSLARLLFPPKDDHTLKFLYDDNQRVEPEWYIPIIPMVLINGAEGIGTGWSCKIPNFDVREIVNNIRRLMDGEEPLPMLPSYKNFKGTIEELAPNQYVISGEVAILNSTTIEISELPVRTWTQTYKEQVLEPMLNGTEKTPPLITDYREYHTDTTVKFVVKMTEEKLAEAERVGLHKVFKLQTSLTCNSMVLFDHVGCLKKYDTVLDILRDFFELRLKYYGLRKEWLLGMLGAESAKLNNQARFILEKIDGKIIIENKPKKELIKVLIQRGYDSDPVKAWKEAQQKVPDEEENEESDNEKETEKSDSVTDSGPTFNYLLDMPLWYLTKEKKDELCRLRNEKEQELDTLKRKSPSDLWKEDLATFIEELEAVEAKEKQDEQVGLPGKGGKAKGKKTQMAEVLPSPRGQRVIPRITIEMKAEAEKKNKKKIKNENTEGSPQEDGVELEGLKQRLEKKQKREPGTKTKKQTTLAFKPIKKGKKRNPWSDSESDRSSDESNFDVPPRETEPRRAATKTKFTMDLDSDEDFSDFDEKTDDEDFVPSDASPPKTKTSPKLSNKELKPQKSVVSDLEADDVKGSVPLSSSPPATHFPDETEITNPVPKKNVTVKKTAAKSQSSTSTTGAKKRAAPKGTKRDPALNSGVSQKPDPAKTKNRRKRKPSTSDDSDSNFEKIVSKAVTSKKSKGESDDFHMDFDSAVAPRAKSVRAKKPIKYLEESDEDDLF

Compound | tested on | test | test system | setting | how to read | quantity | value
COc1ccc([C@@H](O)c2cc(-c3ncnc4cc(N5CCOCC5)ccc34)c(F)cc2Cl)nn1 |  |  | locally advanced rectal cancer patients | 250 mg, with: capecitabine and radiotherapy |  | injury poisoning procedural TEAE | 17%
Fc1ccccc1Cc1nc(-c2nc(C(F)(F)F)n[nH]2)cn2ccnc12 |  |  | healthy human subjects, both sexes | oral, 10 mg, fasted |  | subjects with respiratory TEAEs | 7.1%
CO/N=C(\C(=O)N[C@@H]1C(=O)N2C(C(=O)O)=C(COC(C)=O)CS[C@H]12)c1csc(N)n1 | Salmonella enterica serovar Derby | broth microdilution | clinical isolate RKI-No 270/14 |  |  | MIC | > 16 µg/mL
COc1cc([C@@H]2c3cc4c(cc3[C@@H](O[C@@H]3O[C@@H]5CO[C@@H](C)O[C@H]5[C@H](O)[C@H]3O)[C@H]3COC(=O)[C@H]23)OCO4)cc(OC)c1O | DNA topoisomerase 2-alpha (TOP2A, Homo sapiens, UniProt P11388) | DNA cleavage |  | 12.5 µM, replicate 2 |  | linear DNA | 13.8%
CC1COc2ccccc2N1C(=O)C(Cl)Cl (stereo not drawn) | carboxylesterase |  | male rhesus monkey liver cytosol | 5 µM, 30 min, pH 7.4, without GSH |  | remaining compound | 78 ± 1%
Cc1cc(-c2nccc3c2ccn3CC(=O)Nc2ccc(-c3cnccn3)cn2)ccn1 |  |  | healthy human volunteers | oral, 15 mg once daily, 14 days, multiple ascending dose |  | injury or procedural TEAEs | 11.1%
COC(=O)Nc1c(N)nc(-c2nn(Cc3ccccc3F)c3ncc(F)cc23)nc1N |  |  | human, male, plasma | 10 mg, geometric mean, with: digoxin |  | Cmax | 268 ng/mL
COC(=O)Nc1c(N)nc(-c2nn(Cc3ccccc3F)c3ncc(F)cc23)nc1N |  |  | healthy men | oral, dose not given, multiple dose, with: sildenafil 25 mg | reference: with over without sildenafil | AUC ratio | 1
N#CCC1CCN(c2nc(Nc3ccc(N4CCC(O)CC4)cc3)c3c(=O)[nH]ncc3n2)CC1 |  | Olink multiplex, measured: CDCP1 | human, serum | 80 mg, day 15, unit not given | reference: placebo | serum level change | -1.29
O=C(Nc1nc2cccc(-c3ccc(CN4CCS(=O)(=O)CC4)cc3)n2n1)C1CC1 |  | measured: injury or procedural complication | rheumatoid arthritis patients | oral, 150 mg once daily, 4 weeks, any relatedness |  | patients with adverse event | 6.7%
CCn1c(=O)c(-c2cc(NC(=O)Nc3ccccc3)c(F)cc2Br)cc2cnc(NC)cc21 |  | measured: injury and poisoning | moderate hepatic impairment | 50 mg single dose |  | patients with grade 3+ TEAE | 12.5%
CC(C)(C(=O)N1CCOc2c(C#N)cncc2C1)C(F)F |  | measured: injury, poisoning, procedural complications | human | oral, 15 mg twice daily, 14 days, multiple ascending dose |  | subjects with adverse event | 0%

For quick reference, copied from above:
Compound | tested on | test | test system | setting | how to read | quantity | value
CC1COc2ccccc2N1C(=O)C(Cl)Cl (stereo not drawn) | carboxylesterase |  | male rhesus monkey liver cytosol | 5 µM, 30 min, pH 7.4, without GSH |  | remaining compound | 78 ± 1%
COc1ccc([C@@H](O)c2cc(-c3ncnc4cc(N5CCOCC5)ccc34)c(F)cc2Cl)nn1 |  |  | locally advanced rectal cancer patients | 250 mg, with: capecitabine and radiotherapy |  | injury poisoning procedural TEAE | 17%
